Measurements collected from several papers.
Each line is one published result; not all experiments were run side by side. Numbers after ± are the reported error.
Organism: Toxoplasma gondii

`O=c1c2ccc(Oc3ccc(OC(F)(F)F)cc3)cc2[nH]c2cccc(F)c12` gave an EC50 of 0.628 nM (parasite growth, beta-galactosidase reporter; HFF, RH).
With `COc1ccc(NC(=O)N2CCCN3CCC(c4ccc(C#Cc5cnccn5)cc4)C3C2)cc1` (stereo not drawn) the EC90 was greater than 10000 nM (parasite growth; HFF, RH type I luciferase).
Under “reduction of cyst viability”, `N#Cc1nc(N2CCOCC2)nc(N(Cc2ccc(F)cc2)CC2CCCCC2)n1` is recorded as roughly 80% (qPCR plaque; HFF host cells, bradyzoite cysts; 5 µM, 7 days daily; reference: DMSO).
With `O=C(CCCN1C(=O)c2cccc3cccc(c23)C1=O)NO` the IC50 was 50.9 µM (parasite growth; HFF; 48 h, intracellular).
With `COc1ccc(NC(=O)N2CCCN3CCC(c4ccc(C#CC5CCCCC5)cc4)C3C2)cc1` (stereo not drawn) the EC90 was 710 nM (parasite growth, luciferase; HFF, RH type I luciferase).
With `CCCCCCCCC1=C(CCCCCCCCC(=O)OC)C1` the selectivity index was greater than 2.3 (Vero, RH; reference: CC50 over EC50).
For `N#Cc1nc(N2CCOCC2)nc(N(Cc2ccc(F)cc2)CC2CCCNC2)n1` (stereo not drawn), “reduction of cyst viability” read less than 20% (qPCR plaque; HFF host cells, bradyzoite cysts; 5 µM, 7 days daily; reference: DMSO).
`CCCCCCCCC1=C(CCCCCCC(=O)OC)C1` gave a selectivity index of greater than 2.8 (Vero, RH; reference: CC50 over EC50).
With `COc1ccc(NC(=O)N2CCCN3CCC(c4ccc(C#Cc5ccccc5)cc4)C3C2)cc1` (stereo not drawn) the EC90 was 460 ± 50 nM (parasite growth; HFF, RH type I luciferase).

Some of these lines once more:
With `COc1ccc(NC(=O)N2CCCN3CCC(c4ccc(C#Cc5cnccn5)cc4)C3C2)cc1` (stereo not drawn) the EC90 was greater than 10000 nM (parasite growth; HFF, RH type I luciferase).
